Assay results gathered from unrelated publications.
Each numbered part is a random draw from the data of one study; scales do not carry over between parts. ± gives the spread as reported. Converted amounts (≈) assume the structure as drawn.
Sequence of UniProt O42275 (whole entry, looked up): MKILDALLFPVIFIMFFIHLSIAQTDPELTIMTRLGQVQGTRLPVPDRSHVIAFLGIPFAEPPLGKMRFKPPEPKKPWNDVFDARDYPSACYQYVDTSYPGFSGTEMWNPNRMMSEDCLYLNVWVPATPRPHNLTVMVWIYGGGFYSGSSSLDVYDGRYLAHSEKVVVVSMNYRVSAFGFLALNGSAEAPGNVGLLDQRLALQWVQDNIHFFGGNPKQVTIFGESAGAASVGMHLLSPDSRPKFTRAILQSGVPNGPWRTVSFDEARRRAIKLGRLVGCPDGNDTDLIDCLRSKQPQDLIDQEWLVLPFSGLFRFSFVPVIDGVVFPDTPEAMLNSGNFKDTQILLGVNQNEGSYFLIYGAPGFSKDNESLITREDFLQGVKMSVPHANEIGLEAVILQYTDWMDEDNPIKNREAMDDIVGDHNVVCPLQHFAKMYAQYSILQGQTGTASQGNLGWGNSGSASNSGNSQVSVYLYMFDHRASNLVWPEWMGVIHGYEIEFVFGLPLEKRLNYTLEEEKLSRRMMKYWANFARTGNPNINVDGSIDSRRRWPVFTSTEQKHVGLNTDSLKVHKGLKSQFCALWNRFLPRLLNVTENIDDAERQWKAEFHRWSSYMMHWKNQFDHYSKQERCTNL
Sequence of UniProt P34914 (whole entry, looked up): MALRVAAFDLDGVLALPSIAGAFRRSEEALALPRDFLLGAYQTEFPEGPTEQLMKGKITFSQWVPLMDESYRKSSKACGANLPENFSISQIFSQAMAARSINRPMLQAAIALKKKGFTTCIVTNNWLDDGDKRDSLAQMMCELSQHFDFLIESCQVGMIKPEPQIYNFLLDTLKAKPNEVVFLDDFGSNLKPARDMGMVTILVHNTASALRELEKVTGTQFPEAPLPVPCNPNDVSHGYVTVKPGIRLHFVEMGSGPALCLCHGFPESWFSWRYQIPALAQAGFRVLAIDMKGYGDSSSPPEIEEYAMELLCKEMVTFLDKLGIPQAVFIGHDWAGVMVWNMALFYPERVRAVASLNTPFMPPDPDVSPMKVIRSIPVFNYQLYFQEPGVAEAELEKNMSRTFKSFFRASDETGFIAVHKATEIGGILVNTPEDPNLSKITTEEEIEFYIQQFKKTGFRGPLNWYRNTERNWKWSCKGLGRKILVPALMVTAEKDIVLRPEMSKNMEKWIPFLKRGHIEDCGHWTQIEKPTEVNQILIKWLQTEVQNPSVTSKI
Sequence of UniProt P34913 (whole entry, looked up): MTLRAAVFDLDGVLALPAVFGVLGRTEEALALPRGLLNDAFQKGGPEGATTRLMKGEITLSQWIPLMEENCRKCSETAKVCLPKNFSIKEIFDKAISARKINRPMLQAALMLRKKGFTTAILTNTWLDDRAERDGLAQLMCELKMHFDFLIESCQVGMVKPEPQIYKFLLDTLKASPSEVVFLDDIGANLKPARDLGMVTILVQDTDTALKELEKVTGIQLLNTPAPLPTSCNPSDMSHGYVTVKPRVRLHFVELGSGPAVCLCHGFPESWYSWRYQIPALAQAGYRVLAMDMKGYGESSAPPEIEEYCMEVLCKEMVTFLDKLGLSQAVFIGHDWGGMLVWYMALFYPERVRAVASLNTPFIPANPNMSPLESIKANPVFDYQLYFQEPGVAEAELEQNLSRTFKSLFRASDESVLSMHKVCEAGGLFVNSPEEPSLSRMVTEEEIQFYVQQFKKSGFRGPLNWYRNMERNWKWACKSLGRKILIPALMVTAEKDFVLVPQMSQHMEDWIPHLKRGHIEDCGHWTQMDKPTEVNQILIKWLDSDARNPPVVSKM

Sample 1
SMILES: Cc1cc(OCc2nnc(SC3CCCC3)n2-c2cccnc2)ccc1-c1ccc(S(C)(=O)=O)cc1
| cell line | GI50 |
| --- | --- |
| Hs-578T | 2120 nM |
| OVCAR-8 | 832 nM |
| CCRF-CEM | 1540 nM |
| NCI-H522 | 1570 nM |
| IGROV-1 | 1320 nM |

Mixed results
| Substance | tested on | assay | test system | conditions | measurement | result |
| --- | --- | --- | --- | --- | --- | --- |
| Cc1ccc(S(=O)(=O)Nc2c(N3CCC(NC(=O)Nc4ccc(F)c(Cl)c4)CC3)c(=O)c2=O)cc1 | Ephx2 (Mus musculus, UniProt P34914) |  |  |  | IC50 | 193 ± 20.5 nM |
| O=C(Nc1ccc(-c2ccc3ccccc3n2)cc1)C1CCN(Cc2ccc(F)cc2F)CC1 | ache (Electrophorus electricus, UniProt O42275) |  |  |  | IC50 | 2150 nM |
| pyc (Rhizobium etli, UniProt Q2K340) | CC(=O)OP(=O)(O)O | steady-state kinetics |  | pH 7.5, 25 °C | Km | 340 µM |
| O=C(Nc1ccc(OC(F)(F)F)c(F)c1)NC1CCN(c2c(NS(=O)(=O)Cc3ccccc3)c(=O)c2=O)CC1 | EPHX2 (Homo sapiens, UniProt P34913) |  |  |  | IC50 | 3.9 ± 0.4 nM |
| O=C(Nc1ccc(-c2cnc3ccccc3c2)cc1)C1CCN(Cc2ccc([N+](=O)[O-])cc2)CC1 |  |  | sodium phosphate buffer, 1% DMSO | pH 7.4 | solubility | 31 to 63 µM (≈ 14.5 to 29.4 µg/mL) |

Some of these lines once more (mixed results):
| Substance | tested on | assay | test system | conditions | measurement | result |
| --- | --- | --- | --- | --- | --- | --- |
| O=C(Nc1ccc(OC(F)(F)F)c(F)c1)NC1CCN(c2c(NS(=O)(=O)Cc3ccccc3)c(=O)c2=O)CC1 | EPHX2 (Homo sapiens, UniProt P34913) |  |  |  | IC50 | 3.9 ± 0.4 nM |
